Experimental data collected from several papers.
A part holds a random share of what one study measured. Changes are numbered by the printed parent chain.

Series 1 — method: protein-binding microarray; molecule type: double-stranded DNA, one strand shown; matrix: in vitro; tested at: not given; reading: higher = stronger binding
Target: Myc proto-oncogene protein, bHLH-zipper, MAX partner unstated (MYC, Homo sapiens, UniProt P01106, residues 368-449)
Chain of UniProt P01106 (368-449, looked up): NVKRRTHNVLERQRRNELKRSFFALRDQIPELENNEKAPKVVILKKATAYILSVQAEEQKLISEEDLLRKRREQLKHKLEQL
Notes: k-mer, scored over probes, only values ≥0.25
The E-score of `AACGTGCG` is reported as 0.403.
With `CATACACG` the E-score was 0.373.
The E-score of `ACGTGGAC` is reported as 0.432.
With `CGCATGCC` the E-score was 0.432.
For `TGCCCACA`, the E-score was 0.25.
With `GGACAGCA` the E-score was 0.288.
For `GTGGCGCA`, the E-score was 0.362.
`TCGTGGAA` gave an E-score of 0.307.
For `GCCCACGC`, the E-score was 0.4.
`ATGTGTGC` gave an E-score of 0.335.
For `CGCACACA`, the E-score was 0.264.
With `AATCACGC` the E-score was 0.308.
With `ATCATGCG` the E-score was 0.34.
`CTCTCCAC` gave an E-score of 0.253.
For `CATGACGC`, the E-score was 0.288.
For `CGAGGGGC`, the E-score was 0.278.
With `CGTGCTCA` the E-score was 0.424.
The E-score of `CTCGCGTC` is reported as 0.274.
`ACGCGGCA` gave an E-score of 0.359.
`ACGTGCTA` gave an E-score of 0.442.
The E-score of `CTACACGC` is reported as 0.374.

Series 2 — method: protein-binding microarray; molecule type: double-stranded DNA, one strand shown; matrix: in vitro; tested at: 2200 nM top; notes: 60-bp whole probe; with: salmon DNA 0.4 mg/ml; relative to: random background probes; reading: higher = stronger binding; shared flanks, not repeated: GCCTAGCAC … GTCTTGATTCGCTTGACGCTGCTG
Target: Interferon regulatory factor 7, full length, phosphomimetic (IRF7, Homo sapiens, UniProt Q92985, residues 1-503, S471D/S472D/S475D/S476D/S477D/S483D/S484D/S487D)
Target sequence (chain): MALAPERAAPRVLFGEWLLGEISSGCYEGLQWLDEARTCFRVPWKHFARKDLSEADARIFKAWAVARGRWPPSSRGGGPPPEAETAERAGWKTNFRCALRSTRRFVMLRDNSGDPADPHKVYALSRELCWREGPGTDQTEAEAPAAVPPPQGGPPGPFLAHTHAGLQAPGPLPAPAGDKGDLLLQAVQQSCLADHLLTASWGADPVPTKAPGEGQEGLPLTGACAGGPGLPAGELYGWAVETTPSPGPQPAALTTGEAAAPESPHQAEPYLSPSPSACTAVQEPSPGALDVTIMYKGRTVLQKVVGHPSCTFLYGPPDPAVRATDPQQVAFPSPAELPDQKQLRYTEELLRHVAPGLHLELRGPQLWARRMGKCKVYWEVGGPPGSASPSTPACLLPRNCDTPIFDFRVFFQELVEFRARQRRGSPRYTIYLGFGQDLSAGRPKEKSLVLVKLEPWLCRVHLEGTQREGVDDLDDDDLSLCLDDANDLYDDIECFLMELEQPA
`TCATTTACCACATTCTCACTGTGCTAG` — result for “fitted relative affinity”: 2.39 z-score.
`GACGATCTCAGTATCGAGAAGTGCTAG` — result for “fitted relative affinity”: -0.0247 z-score.
For `GGCGATATCGGGTTTCGAGACGTGCTA`, “fitted relative affinity” read 1.09 z-score.
`TGGGCACACTTTGGGTCCTGGTGCTAG` — result for “fitted relative affinity”: -0.839 z-score.
Under “fitted relative affinity”, `TTAGGACTGGGGGATCGGTTAGTGCTA` is recorded as 0.234 z-score.
`TTAGGTCTCGACTATCGGTTAGTGCTA` — result for “fitted relative affinity”: 0.187 z-score.
`TCAGACATCTTCATCAAACTGTGCTAG` — result for “fitted relative affinity”: 0.407 z-score.
Under “fitted relative affinity”, `TTAGGCATCGACTATCGGTTAGTGCTA` is recorded as -0.174 z-score.
Under “fitted relative affinity”, `TCACTCGTGTTTTTCTCACTGTGCTAG` is recorded as 1.98 z-score.
For `TCAATTTTCGGGTAGATGACTGTGCTA`, “fitted relative affinity” read 5.07 z-score.
For `TTAGAGCTGAGACTGGATTAGTGCTAG`, “fitted relative affinity” read -0.975 z-score.
`GATGGACTGGGTCTCGGGACGTGCTAG` — result for “fitted relative affinity”: -0.851 z-score.
Under “fitted relative affinity”, `GACGGACTGGACTAGCGGGACGTGCTA` is recorded as -1.04 z-score.
For `GACGAACTAGGGTATCGAGACGTGCTA`, “fitted relative affinity” read -0.545 z-score.
Under “fitted relative affinity”, `TCAGGTATCGGTATCGGTTAGTGCTAG` is recorded as 1.66 z-score.
`GACAGTTTCGGGACTGGGGACGTGCTA` — result for “fitted relative affinity”: 4.48 z-score.
Under “fitted relative affinity”, `GACGGGTTCGACTTTCGGGACGTGCTA` is recorded as 3.36 z-score.
Under “fitted relative affinity”, `AACGGTTTCGGACTGGGGACGTGCTAG` is recorded as 4.05 z-score.
For `GACGGGCTGGGACTGGGGACGTGCTAG`, “fitted relative affinity” read -1.22 z-score.

Series 3 — method: protein binding microarray; molecule type: double-stranded DNA, one strand shown; matrix: in vitro; tested at: not given; relative to: not given; reading: higher = stronger binding
Target: Histone acetyltransferase KAT6A, winged helix 1, GST fusion (KAT6A, Homo sapiens, UniProt Q92794, residues 1-85)
Notes: 8-mer, flanks averaged, mean of 2 arrays, mostly near background
Residues (chain): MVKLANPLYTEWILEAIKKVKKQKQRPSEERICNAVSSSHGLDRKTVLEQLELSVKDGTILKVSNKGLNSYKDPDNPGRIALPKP
`AATGTAGC` has an E-score of -0.121.
The E-score of `GGGGATTA` is reported as -0.0443.
`CAGTCGTA` gave an E-score of -0.0161.
`AATAGACA` has an E-score of -0.143.
With `GTCCGCTA` the E-score was 0.118.
For `GAGCCCTA`, the E-score was 0.00404.
With `GCAGTGCC` the E-score was 0.105.
For `GCACTGGA`, the E-score was -0.0994.
For `AAGACTGG`, the E-score was -0.0648.
For `AGCCCGTC`, the E-score was 0.334.
For `CCACTTAG`, the E-score was -0.151.
For `AGACCGGC`, the E-score was 0.267.
The E-score of `TGCGAAAA` is reported as 0.106.
`GATTAAGC` has an E-score of -0.0666.
`CGCGGCTA` has an E-score of 0.452.
For `ATAAATAC`, the E-score was -0.141.
`CGGTTGTC` gave an E-score of 0.11.
For `CTCAGCGC`, the E-score was 0.349.
The E-score of `CTAACCCC` is reported as 0.00626.
`GACGCCCA` gave an E-score of 0.0511.

Series 4 — method: RNA Bind-n-Seq; molecule type: RNA; matrix: in vitro; tested at: 365 nM; relative to: no-protein control; reading: higher = stronger binding
Target: RNA binding protein fox-1 homolog 2, RRM domain, GST-SBP tag (RBFOX2, Homo sapiens, UniProt O43251-10, residues 100-194)
Notes: natural RNA segment, single round, ends assumed
Shared flanks, not repeated: GGGAGUUCUACAGUCCGACGAUC … UGGAAUUCUCGGGUGCCAA
Construct (chain): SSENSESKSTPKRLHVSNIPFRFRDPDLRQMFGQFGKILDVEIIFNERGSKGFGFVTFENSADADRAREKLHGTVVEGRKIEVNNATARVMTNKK
For `AGAUAUCUUUCCCAAACUUGGGGUAAAACCCAUGGUUAUGUGGAACAUAACUGUUCUUAAAAAGUCAAUUAUAAUUUGUAACUCACAUCCUUUGAGCUAAACUAAAUUAA`, “RBNS enrichment (R)” read 0.267.
`AACCCUGUCAAACAUUAGUACUUUUUAGAAGAAUGCAUGCUUUCCAUAUUUUUUUCCUUACAUAAACAUCAGCUUAGGCAGUAUAAAAAAUAGGACUUGUUUUUUGUUUU` — result for “RBNS enrichment (R)”: 9.8.
`CAUUAGCUGCUUAAAAAAGCAUUGAGUUAAUUUUUUUAAAUAUCAACUAAAAUAUCAUAGUUCUGUGGUAGACAUUGUUUUAUAAUGAAAUAACUGCAACUAGAGAAAAC`: “RBNS enrichment (R)” 0.833.
For `CUAGCUGCCAUGUGGGGUCCACCUCUUGCCUCAGCAACUUUCCAGGACCUUUGAACUUGCCAGAUACCUUAAGUGUCUUCCCAGAAUCUGCCCACCUGUCAUCAGCCCCC`, “RBNS enrichment (R)” read 0.463.
For `GGGCCUCAAAGAUUCAAAGAUUAAAAACAAAAAGCUUUUGAUGGAAAAGAUGUGGGUGGAUAGUAUAUUUCUACAGGUGGGUCAGGUUUGGUAGCAGUUUGAUGUGCUGG`, “RBNS enrichment (R)” read 0.967.
Under “RBNS enrichment (R)”, `CCGCCCUGCCCUCCGCCGCUCCGCCUGAGCUCCCCGGUUUGCAGAAUGGAGGAGGGAAGUUGAAGGAGCCACCUCCUCUGUCUACCCACCCGUCCCCUUCACGCCCUUGA` is recorded as 0.403.
`ACCUUUCCUGAAGUAUGCACCCUAGAAAAGAAUUGUGUGCUAAUGCUUGUCAGAGCUGUGGCAGUACUUAACUCUGAGGAUGUAGGAGACGUGACUGGCUUUUAGAGUGA`: “RBNS enrichment (R)” 0.525.
`CAAGAGGCACACAGAGACAGACCAACUGGCAGCCAGGCAGCCCCAGAGGAGAGAGACAUUCAGACAGAGGAAAGUCUCCCUGCCCCUCAUUCCUUCCAAGAUGAGAAAAA`: “RBNS enrichment (R)” 0.5.

Series 5 — method: universal PBM; molecule type: double-stranded DNA, one strand shown; matrix: in vitro; tested at: 600 nM; reading: higher = stronger binding
Target: Sal-like protein 4, full length isoform A (SALL4, Homo sapiens, UniProt Q9UJQ4, residues 1-1053)
Chain of UniProt Q9UJQ4 (whole entry, looked up): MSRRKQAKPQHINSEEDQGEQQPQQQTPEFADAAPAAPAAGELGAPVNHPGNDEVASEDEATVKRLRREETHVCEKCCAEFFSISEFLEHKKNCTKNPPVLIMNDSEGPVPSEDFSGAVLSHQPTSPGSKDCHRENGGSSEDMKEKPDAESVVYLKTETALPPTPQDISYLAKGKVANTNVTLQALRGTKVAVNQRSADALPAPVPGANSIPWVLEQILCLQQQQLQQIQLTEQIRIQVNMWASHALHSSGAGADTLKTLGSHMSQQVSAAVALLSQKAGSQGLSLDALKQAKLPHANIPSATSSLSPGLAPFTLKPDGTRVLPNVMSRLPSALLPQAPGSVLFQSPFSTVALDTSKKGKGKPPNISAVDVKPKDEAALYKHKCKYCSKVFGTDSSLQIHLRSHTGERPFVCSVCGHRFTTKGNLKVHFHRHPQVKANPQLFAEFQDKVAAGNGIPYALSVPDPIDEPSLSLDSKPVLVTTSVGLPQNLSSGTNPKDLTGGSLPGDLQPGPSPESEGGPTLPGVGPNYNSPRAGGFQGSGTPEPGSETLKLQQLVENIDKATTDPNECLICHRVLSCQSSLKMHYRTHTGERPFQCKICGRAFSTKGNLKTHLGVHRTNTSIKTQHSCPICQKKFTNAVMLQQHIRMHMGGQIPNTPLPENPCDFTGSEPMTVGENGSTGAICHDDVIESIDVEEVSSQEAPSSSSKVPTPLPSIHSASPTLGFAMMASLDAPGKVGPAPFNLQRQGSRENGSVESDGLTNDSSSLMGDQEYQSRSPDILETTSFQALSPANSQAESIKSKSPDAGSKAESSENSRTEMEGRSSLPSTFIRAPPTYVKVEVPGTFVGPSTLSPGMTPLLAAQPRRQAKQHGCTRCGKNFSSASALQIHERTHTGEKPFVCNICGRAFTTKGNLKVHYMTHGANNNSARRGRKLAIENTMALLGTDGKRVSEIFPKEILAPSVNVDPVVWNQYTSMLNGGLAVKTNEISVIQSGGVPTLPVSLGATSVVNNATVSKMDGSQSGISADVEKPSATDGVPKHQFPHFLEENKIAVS
Notes: 8-mer, flanks averaged, mean of replicates
For `TCGTAACA`, the E-score was 0.236.
`GACATATC` gave an E-score of 0.201.
`AAGGTCGG` gave an E-score of -0.0902.
The E-score of `CGTTGTCA` is reported as -0.138.
The E-score of `CTAAATGA` is reported as 0.144.
The E-score of `ACCCCCGT` is reported as -0.379.
`ACGCCATG` gave an E-score of -0.0378.
`CAAACGCG` has an E-score of -0.0552.
With `CCAGAGGA` the E-score was -0.13.
The E-score of `CGACCGGA` is reported as -0.373.
`GCATAAAA` has an E-score of 0.299.
The E-score of `GATGAGCA` is reported as 0.0537.
For `TGGGTAAA`, the E-score was -0.0587.
For `CGCGGTAC`, the E-score was -0.281.
With `AATATTGT` the E-score was 0.409.
The E-score of `ACCAAGAT` is reported as 0.0835.
With `CCCTTTGA` the E-score was -0.121.
`ACTTAGAG` has an E-score of 0.117.

Series 6 — target: CCND1, cyclin fold, Cln2 fusion (human); method: yeast growth competition, sequencing; matrix: yeast; notes: weak parent motif; relative to: not given; reading: higher = stronger binding
Parent: REPIN1 docking peptide (human); QSFRGWVALVLHL
For `R4A`, “normalised enrichment score” read 0.0325.
`Q1A` — result for “normalised enrichment score”: 0.365.
Under “normalised enrichment score”, `V10A` is recorded as 0.443.
`L13A` — result for “normalised enrichment score”: 0.69.
`H12A`: “normalised enrichment score” 0.364.
Under “normalised enrichment score”, `G5A` is recorded as 0.671.
